Assay results gathered from unrelated publications.
Protocols differ between the studies behind these lines. Values joined by “and” are separate records of one study, mostly repeats; a detail may differ. ± marks the error that the study gave.
Ugcg: Ceramide glucosyltransferase (Ugcg, Mus musculus, UniProt O88693)
UniProt O88693, sequence (whole entry, looked up): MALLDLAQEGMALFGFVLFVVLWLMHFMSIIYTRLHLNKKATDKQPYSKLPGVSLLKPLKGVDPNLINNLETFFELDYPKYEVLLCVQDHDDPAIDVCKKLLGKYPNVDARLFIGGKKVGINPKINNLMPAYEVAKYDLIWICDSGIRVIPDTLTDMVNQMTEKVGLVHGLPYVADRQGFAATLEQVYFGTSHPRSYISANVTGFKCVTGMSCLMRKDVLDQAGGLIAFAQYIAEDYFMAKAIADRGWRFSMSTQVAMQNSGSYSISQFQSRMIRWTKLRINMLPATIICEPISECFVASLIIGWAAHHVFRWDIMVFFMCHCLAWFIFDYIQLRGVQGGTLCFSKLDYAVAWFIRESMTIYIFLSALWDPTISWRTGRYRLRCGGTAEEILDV
UniProt O14965, sequence (whole entry, looked up): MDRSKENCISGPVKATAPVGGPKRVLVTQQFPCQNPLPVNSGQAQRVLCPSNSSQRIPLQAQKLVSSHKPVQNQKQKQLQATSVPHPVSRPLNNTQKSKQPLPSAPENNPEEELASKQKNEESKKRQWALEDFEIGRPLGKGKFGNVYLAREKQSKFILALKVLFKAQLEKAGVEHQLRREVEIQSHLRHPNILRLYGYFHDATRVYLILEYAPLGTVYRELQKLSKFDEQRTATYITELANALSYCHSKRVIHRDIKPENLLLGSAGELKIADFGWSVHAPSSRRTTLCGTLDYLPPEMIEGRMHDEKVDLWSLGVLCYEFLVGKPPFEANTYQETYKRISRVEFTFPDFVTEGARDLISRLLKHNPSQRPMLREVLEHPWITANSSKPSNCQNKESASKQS

Compound	tested on	test	system	setting	how to read	quantity	value
COC1C=COC2(C)Oc3c(C)c(O)c4c(c3C2=O)C2=NC3(CCN(CC(C)C)CC3)NC2=C(NC(=O)C(C)=CC=CC(C)C(O)C(C)C(O)C(C)C(OC(=O)Nc2cccnn2)C1C)C4=O (centres unmarked)	–	–	CD-1 mouse, plasma	oral, dose not given, efficacy dose	–	fAUC/MIC ratio	163
O=C(CN1CCCCC1)Nc1ccc(C2CCCCC2)cc1	–	–	human liver microsomes	1 µM, without NADPH	–	hepatic clearance	12 mL/min/kg
COc1cccc(OC)c1-c1cc(C(=O)NC2(C(=O)O)C3CC4CC(C3)CC2C4)nn1-c1ccc(C(=O)N(C)CCOCCN(C)C(=O)[C@H](CCCCNC(=O)[C@H](CC(C)C)NC(=O)C2OC2C(=O)O)NC(=O)CN2CCN(CC(=O)[O-])CCN(CC(=O)[O-])CCN(CC(=O)[O-])CC2)cc1C(C)C.[177Lu+3] (mixture of isomers)	–	–	mouse HT-29 xenograft, large intestine	24 h post injection, biodistribution	–	tissue uptake	0.24 %ID/g
CC[n+]1cccc2cc(/C=N/NC(=O)c3cccc(C(=O)N/N=C/c4ccc5c(ccc[n+]5CC)c4)c3)ccc21	22CTA telomeric G4-DNA antiparallel	FRET melting	–	1 µM, K10 buffer, DNA 0.2 µM	–	ΔTm	6.5 ± 0.3 °C
CCCCCCCCN1C[C@H](O)[C@@H](O)[C@H](O)[C@H]1CO	Ugcg	enzyme activity, inhibitor, fluorescence	–	–	–	IC50	4 µM
CC(C)CC(=O)Nc1ccc([C@H]2[C@@H](F)[C@@H](F)C[C@@H](F)[C@H]2F)cc1	–	liver microsome stability	dog liver microsomes	1 µM	–	hepatic clearance	8.1 mL/min/kg
CCCCCCCC(=O)[O][Pt]([Cl])([Cl])[O]C(=O)CCCCCCC.N.N	–	ICP-MS, measured: platinum	nude mice, blood	intravenous, equimolar single dose	–	CL2	0.000156 mg/(ng/mL)/h
CC(C)=CCc1cc(C(=O)/C=C/c2ccc(O)cc2)c(O)cc1O	–	–	minipig liver microsomes	phase I metabolism	–	CLint	5.28 µL/min/mg
CC(C)OC(=O)[C@H](CO)NCc1cc(Cl)c(OCc2cccc(-c3ccccc3)c2Br)cc1OCc1cccnc1	–	–	hPD-L1 MC-38 tumour, humanised hPD-1 C57BL/6 mouse	oral, 5 mg/kg × 21, day 21	–	body weight	21.4 ± 0.9 g
CCCN(C)c1cc(C(F)(F)F)nc(SCCC(=O)NCc2ccco2)n1	–	–	Wistar rat	intraperitoneal, 25 mg/kg, 2 min post-dose, isoflurane anaesthesia	baseline: vehicle control	heart rate	no effect
C[n+]1ccc(/C=N/NC(=O)c2cncc(C(=O)N/N=C/c3cc[n+](C)cc3)n2)cc1	22CTA telomeric G4-DNA antiparallel	FRET melting	–	1 µM, K10 buffer, DNA 0.2 µM	–	ΔTm	2.9 ± 0.4 °C
CN(C(=O)C(C)(C)c1cc(C(F)(F)F)cc(C(F)(F)F)c1)c1cnc(N2C[C@H]3COCCN3C[C@H]2CO)cc1-c1ccc(F)cc1CO	–	–	healthy male human	oral, 120 mg, up to 480 h cumulative	baseline: dose	amount excreted in faeces	~3% and 3.13%
CC(C)C[C@H](NC(=O)[C@H](CO)NC(=O)[C@H](CCC(=O)O)NC(=O)CNC(=O)[C@H](C)NC(=O)OCc1ccccc1)C(=O)N[C@@H](Cc1ccc(O)cc1)C(=O)N[C@@H](CCC(=O)O)C(N)=O	–	metabolic stability	human, plasma	15 min	–	compound remaining	83.2%
COc1ccc2c(c1)CN(C(=O)CCN1CCC(Cc3ccccc3)CC1)CCS2	–	–	paroxysmal atrial fibrillation patients, plasma	oral, 540 mg, 120 min	–	unbound plasma concentration	14 ± 4 nM
Cc1nn(-c2cccc(N)c2)c(=O)c2cnc(Nc3ccc(N4CCNCC4)cc3)nc12	Aurora kinase A (AURKA, Homo sapiens, UniProt O14965)	SelectScreen kinase	–	–	–	IC50	> 10 µM
Cc1ccc(CN2C(=O)/C(=N\c3ccc(Cl)cc3Br)c3ccccc32)cc1	–	–	mouse, blood	200 mg/kg	–	Mon%	2.37 ± 0.12%
CNC(=O)c1ccc([C@H]2[C@@H](F)[C@@H](F)C[C@@H](F)[C@H]2F)cc1	–	liver microsome stability	cynomolgus liver microsomes	1 µM	–	hepatic clearance	8.2 mL/min/kg
Cc1noc(C)c1Cn1cc(N2C(=O)CN(Cc3cccc(O[C@@H]4O[C@H](C(=O)O)[C@@H](O)[C@H](O)[C@H]4O)c3)C2=O)cn1	–	–	Sprague-Dawley rat, male	oral, 100 mg/kg of parent drug, 4 h	–	plasma concentration	6030 ng/mL
CN(C)c1cccc(-c2ccc([C@H]3[C@@H](F)[C@@H](F)C[C@@H](F)[C@H]3F)cc2)c1	–	liver microsome stability	mouse liver microsomes	1 µM	–	hepatic clearance	87 mL/min/kg
OC[C@@H]1[C@@H](O)[C@H](O)[C@@H](O)CN1CCCCOCCC12CC3CC(CC(C3)C1)C2	Ugcg	enzyme activity, inhibitor, fluorescence	–	–	–	IC50	3.63 µM
CN(O)C(=O)CCC(=O)NCCCN(CCCCN(CCCNC(=O)CCC(=O)N(C)O)C(=O)CCC(=O)N(C)O)C(=O)CCC(=O)N(C)O.[89Zr]	–	radio-TLC	aqueous buffer	7 d, pH 7.2, 37 °C, 89Zr-labelled complex, together with: MgCl2 10-fold excess	–	intact complex	99.6 ± 0.4%
O=C(CC1CCOCC1)Nc1ccc([C@H]2[C@@H](F)[C@@H](F)C[C@@H](F)[C@H]2F)cc1	–	liver microsome stability	human liver microsomes	1 µM, without NADPH	–	hepatic clearance	3.9 mL/min/kg
CCCC[C@H](NC(=O)COCCOCCNC(=O)CN1CCN(CC(=O)O)CCN(CC(=O)O)CC1)C(=O)N[C@H]1CC(=O)NCCCC[C@@H](C(N)=O)NC(=O)[C@H](Cc2c[nH]c3ccccc23)NC(=O)[C@H](CCCNC(=N)N)NC(=O)[C@@H](Cc2ccccc2)NC(=O)[C@H](Cc2c[nH]cn2)NC1=O [technetium-99m labelled]	–	–	C57 mouse, stomach	intravenous, 0.037 MBq, 2 h	–	tissue uptake	0.52 ± 0.07 %ID/g

Repeated from above:
Compound	tested on	test	system	setting	how to read	quantity	value
COc1ccc2c(c1)CN(C(=O)CCN1CCC(Cc3ccccc3)CC1)CCS2	–	–	paroxysmal atrial fibrillation patients, plasma	oral, 540 mg, 120 min	–	unbound plasma concentration	14 ± 4 nM
CN(C(=O)C(C)(C)c1cc(C(F)(F)F)cc(C(F)(F)F)c1)c1cnc(N2C[C@H]3COCCN3C[C@H]2CO)cc1-c1ccc(F)cc1CO	–	–	healthy male human	oral, 120 mg, up to 480 h cumulative	baseline: dose	amount excreted in faeces	~3% and 3.13%
CC(C)CC(=O)Nc1ccc([C@H]2[C@@H](F)[C@@H](F)C[C@@H](F)[C@H]2F)cc1	–	liver microsome stability	dog liver microsomes	1 µM	–	hepatic clearance	8.1 mL/min/kg
